# Results from different studies.
# Compare with care: the assays were run in different laboratories. Values joined by “and” are separate records of one study, mostly repeats; a detail may differ. ± marks the error that the study gave.
# lasR: Transcriptional activator protein LasR (lasR, Pseudomonas aeruginosa, UniProt P25084)
# KEAP1: Kelch-like ECH-associated protein 1 (KEAP1, Homo sapiens, UniProt Q14145)
# Chain of UniProt Q14145 (whole entry, looked up): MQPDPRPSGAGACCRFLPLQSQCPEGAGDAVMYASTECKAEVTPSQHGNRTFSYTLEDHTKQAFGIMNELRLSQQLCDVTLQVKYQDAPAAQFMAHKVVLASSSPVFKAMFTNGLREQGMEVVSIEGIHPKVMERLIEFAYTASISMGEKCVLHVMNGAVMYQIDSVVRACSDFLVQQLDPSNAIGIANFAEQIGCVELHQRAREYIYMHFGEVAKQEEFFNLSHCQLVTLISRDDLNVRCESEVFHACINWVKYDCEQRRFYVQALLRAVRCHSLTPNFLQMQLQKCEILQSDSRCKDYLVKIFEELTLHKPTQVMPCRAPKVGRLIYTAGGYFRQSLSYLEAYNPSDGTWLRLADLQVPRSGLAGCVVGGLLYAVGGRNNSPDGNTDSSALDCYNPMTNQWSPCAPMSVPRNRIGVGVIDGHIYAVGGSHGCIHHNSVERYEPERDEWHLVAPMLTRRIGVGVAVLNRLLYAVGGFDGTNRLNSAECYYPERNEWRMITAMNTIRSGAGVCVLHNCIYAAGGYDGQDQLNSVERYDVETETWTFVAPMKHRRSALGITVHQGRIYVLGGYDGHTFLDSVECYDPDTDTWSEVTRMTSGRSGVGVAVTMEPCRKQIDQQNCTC
# Oprm1: Mu-type opioid receptor (Oprm1, Rattus norvegicus, UniProt P33535)
# Chain of UniProt P33535 (whole entry, looked up): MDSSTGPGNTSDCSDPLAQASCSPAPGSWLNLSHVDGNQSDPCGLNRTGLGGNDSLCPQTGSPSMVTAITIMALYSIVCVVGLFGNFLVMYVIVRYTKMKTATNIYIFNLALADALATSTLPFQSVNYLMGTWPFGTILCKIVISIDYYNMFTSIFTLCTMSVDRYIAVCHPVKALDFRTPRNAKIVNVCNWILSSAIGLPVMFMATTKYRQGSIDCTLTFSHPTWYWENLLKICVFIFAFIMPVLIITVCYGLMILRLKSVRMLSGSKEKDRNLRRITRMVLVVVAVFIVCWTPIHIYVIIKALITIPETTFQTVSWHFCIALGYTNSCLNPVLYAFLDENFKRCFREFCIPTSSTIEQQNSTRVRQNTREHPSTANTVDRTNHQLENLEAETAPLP
# sdiA: Regulatory protein SdiA (sdiA, Escherichia coli, UniProt P07026)
# Chain of UniProt P07026 (whole entry, looked up): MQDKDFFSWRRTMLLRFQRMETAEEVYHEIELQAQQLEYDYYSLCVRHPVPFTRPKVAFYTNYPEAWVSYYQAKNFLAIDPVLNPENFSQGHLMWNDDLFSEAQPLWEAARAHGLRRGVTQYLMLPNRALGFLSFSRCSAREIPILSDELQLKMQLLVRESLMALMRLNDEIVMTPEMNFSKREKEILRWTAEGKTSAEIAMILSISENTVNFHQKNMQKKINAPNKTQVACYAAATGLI
# Uncharacterized hydrolase SAUSA300_2518: Uncharacterized hydrolase SAUSA300_2518 (Staphylococcus aureus, UniProt Q2FDS6)
# Chain of UniProt P37288 (whole entry, looked up): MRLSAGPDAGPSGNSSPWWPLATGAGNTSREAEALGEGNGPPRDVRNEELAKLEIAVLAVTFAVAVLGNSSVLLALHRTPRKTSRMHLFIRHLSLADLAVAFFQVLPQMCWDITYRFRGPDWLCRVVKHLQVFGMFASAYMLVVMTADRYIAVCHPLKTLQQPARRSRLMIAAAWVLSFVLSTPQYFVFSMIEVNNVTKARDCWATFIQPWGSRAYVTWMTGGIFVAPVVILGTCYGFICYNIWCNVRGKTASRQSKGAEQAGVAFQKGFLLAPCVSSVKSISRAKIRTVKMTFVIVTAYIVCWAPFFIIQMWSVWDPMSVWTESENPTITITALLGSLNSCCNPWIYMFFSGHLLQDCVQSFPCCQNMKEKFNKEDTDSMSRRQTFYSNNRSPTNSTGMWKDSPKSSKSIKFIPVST
# Chain of UniProt P11309 (whole entry, looked up): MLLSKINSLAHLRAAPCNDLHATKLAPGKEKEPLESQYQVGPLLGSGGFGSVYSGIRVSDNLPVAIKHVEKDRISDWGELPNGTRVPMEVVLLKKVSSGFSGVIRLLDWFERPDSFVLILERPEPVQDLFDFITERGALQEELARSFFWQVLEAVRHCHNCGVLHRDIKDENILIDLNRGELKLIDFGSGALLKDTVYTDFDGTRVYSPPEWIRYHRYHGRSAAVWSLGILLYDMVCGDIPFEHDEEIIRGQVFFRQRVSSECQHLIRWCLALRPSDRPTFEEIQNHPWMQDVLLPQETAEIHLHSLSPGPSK
# Chain of UniProt P14616 (whole entry, looked up): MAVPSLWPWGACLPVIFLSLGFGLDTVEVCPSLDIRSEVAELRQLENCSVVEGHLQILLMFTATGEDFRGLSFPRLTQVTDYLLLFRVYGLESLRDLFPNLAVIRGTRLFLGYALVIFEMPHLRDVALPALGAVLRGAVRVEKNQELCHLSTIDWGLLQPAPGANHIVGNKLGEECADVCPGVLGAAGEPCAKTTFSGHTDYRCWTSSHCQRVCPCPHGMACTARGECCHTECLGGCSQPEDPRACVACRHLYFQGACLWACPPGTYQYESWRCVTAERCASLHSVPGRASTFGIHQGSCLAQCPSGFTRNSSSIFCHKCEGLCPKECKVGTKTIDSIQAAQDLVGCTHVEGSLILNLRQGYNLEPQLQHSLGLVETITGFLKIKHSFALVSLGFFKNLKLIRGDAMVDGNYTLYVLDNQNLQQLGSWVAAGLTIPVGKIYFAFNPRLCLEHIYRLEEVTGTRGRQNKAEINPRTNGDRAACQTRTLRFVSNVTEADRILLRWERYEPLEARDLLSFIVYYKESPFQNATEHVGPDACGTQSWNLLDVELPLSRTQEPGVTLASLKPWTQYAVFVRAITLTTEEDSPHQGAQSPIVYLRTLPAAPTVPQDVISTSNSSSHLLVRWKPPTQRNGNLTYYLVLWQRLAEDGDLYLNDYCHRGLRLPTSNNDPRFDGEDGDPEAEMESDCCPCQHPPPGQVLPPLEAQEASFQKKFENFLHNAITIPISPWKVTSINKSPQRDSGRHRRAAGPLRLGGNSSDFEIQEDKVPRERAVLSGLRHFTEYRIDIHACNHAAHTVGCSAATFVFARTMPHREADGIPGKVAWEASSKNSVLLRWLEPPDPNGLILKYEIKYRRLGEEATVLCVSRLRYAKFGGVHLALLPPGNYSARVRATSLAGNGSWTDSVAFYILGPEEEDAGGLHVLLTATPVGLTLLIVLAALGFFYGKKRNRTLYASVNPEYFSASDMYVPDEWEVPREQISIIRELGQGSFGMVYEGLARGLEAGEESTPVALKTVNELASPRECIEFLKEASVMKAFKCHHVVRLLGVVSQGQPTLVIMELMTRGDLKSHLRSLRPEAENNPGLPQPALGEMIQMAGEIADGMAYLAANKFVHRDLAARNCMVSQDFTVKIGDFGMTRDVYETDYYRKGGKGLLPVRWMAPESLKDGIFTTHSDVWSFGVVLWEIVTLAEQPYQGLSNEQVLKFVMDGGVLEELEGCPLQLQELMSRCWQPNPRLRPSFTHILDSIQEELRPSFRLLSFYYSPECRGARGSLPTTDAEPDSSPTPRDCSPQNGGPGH
# Chain of UniProt Q9NRM7 (whole entry, looked up): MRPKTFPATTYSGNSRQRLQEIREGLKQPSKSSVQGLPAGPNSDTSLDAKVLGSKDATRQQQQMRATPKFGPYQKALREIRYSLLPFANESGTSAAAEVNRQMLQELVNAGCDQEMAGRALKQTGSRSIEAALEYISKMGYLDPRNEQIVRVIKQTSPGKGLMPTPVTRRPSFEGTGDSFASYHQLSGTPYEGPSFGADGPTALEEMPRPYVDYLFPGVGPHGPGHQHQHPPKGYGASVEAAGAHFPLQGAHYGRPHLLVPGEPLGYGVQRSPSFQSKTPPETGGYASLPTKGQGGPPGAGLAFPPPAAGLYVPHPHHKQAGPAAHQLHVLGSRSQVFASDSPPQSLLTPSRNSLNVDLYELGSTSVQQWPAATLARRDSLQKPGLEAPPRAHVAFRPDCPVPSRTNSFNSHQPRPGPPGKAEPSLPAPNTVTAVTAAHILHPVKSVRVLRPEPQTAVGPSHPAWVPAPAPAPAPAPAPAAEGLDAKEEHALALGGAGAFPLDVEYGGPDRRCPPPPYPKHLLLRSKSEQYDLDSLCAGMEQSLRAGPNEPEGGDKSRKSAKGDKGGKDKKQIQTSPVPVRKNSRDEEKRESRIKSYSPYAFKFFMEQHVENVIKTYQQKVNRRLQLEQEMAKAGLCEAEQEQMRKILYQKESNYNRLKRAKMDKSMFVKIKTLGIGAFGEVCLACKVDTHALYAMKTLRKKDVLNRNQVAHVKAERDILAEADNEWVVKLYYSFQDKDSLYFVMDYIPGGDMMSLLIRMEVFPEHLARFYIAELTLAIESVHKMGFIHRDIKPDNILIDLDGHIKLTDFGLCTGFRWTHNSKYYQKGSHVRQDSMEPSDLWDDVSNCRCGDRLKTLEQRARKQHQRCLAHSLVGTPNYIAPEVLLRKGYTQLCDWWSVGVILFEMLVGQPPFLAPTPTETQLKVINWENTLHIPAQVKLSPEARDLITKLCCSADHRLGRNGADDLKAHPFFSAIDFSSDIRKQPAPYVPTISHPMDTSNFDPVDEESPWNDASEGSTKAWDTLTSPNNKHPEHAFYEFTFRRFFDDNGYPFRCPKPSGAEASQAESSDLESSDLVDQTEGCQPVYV
# Chain of UniProt Q9Y2J8 (whole entry, looked up): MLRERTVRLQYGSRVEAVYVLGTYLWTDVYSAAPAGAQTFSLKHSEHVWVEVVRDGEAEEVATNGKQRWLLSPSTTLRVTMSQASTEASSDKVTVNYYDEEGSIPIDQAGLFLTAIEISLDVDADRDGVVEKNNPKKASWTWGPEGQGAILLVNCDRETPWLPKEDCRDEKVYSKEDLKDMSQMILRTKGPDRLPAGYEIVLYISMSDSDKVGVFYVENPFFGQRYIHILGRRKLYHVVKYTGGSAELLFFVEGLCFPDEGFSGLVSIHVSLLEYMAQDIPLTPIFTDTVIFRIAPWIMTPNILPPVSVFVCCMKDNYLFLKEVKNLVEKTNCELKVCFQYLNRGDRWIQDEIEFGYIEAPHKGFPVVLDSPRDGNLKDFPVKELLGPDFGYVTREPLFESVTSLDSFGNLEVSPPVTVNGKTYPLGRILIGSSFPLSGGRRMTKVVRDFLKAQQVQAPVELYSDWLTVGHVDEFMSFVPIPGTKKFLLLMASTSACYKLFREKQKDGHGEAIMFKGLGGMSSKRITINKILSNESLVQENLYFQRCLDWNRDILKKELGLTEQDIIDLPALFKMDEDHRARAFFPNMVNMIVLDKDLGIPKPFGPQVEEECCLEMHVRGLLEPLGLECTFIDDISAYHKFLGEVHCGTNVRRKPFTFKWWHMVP
Structure (SMILES),target,test,test system,setting,how to read,endpoint,result
CCCCCCCCCC(=O)NC1CCCC1,lasR,"reporter gene, agonist",Pseudomonas aeruginosa PAO-JP2,"100 µM, plasI-LVAgfp reporter",relative to: OdDHL at same concentration,agonist activity,1%
CC(C)[C@@H]1NC(=O)[C@H](CC(N)=O)NC(=O)CNC(=O)[C@H](CC(N)=O)NC(=O)[C@H](C)NC(=O)[C@H](CC(=O)O)NC(=O)[C@H]([C@@H](C)O)NC(=O)[C@H](CCC(=O)O)NC(=O)CNC(=O)[C@H]([C@@H](C)O)NC(=O)[C@H](CCC(=O)O)NC(=O)[C@H](CCC(=O)O)NC(=O)[C@H](CC(=O)O)NC1=O,KEAP1,"Keap1-Nrf2 binding, inhibitor, competitive FP",,"25 µM, 30 min, with: Nrf2 peptide probe",lower = stronger inhibition,fluorescence polarization,0.0723 a.u. and 0.157 a.u.
CCn1nc(Cl)c2c1-c1cnc(N)c(c1)O[C@H](C)c1cc(F)ccc1-c1nn(C)cc1C2,"Insulin receptor-related protein (INSRR, Homo sapiens, UniProt P14616)","kinase activity, inhibitor",,,relative to: IC50 INSRR over IC50 ALK,selectivity ratio,231 fold
O=C(CCCc1ccccc1)NC1CCOC1=O (stereo not shown),lasR,"reporter gene, antagonist",,,relative to: IC50 PAO-JP2 over E. coli JLD271,potency ratio,180
CC(C)C[C@@H]1NC(=O)[C@H](C(C)C)NC(=O)[C@H](CCC(=O)O)NC(=O)CNC(=O)[C@H]([C@@H](C)O)NC(=O)[C@H](CCC(=O)O)NC(=O)[C@H](CCC(=O)O)NC(=O)[C@H](CC(=O)O)NC(=O)[C@H](C(C)C)NC(=O)[C@H]([C@@H](C)O)NC(=O)CNC(=O)[C@H](CC(=O)O)NC(=O)[C@@H]2CCCN2C1=O,KEAP1,"Keap1-Nrf2 binding, inhibitor, competitive FP",,"100 µM, 30 min, with: Nrf2 peptide probe",lower = stronger inhibition,fluorescence polarization,0.256 a.u. and 0.227 a.u.
O=C1NC(=O)c2c1c1cc(F)c[n+]3c1c1c2c2cc(O)ccc2[n]1[Ru-4]312([N]=C=S)[S+]3CC[S+]1CC[S+]2CC3 (stereo not shown),"Serine/threonine-protein kinase pim-1 (PIM1, Homo sapiens, UniProt P11309)",enzyme activity,,"100 nM, human enzyme, with: 10 µM ATP",relative to: untreated,remaining activity,1%
CCCCCCCCCCCCn1nnc(CC(=O)O)n1,lasR,"reporter gene, antagonist","Escherichia coli, JLD271 with LasR plasmid","concentration not given, with: OdDHL 2 nM",,antagonist activity,inactive
CC(=O)N[C@@H](CCC(N)=O)C(=O)N[C@@H](CC1CCCCC1)C(=O)N[C@@H](CNC(=O)CCl)C(=O)N[C@@H](CC(C)C)C(=O)N[C@@H](Cc1ccccc1)C(=O)O,"Beta sliding clamp (Escherichia coli, UniProt P0A988)","binding, isothermal titration calorimetry",,"pH 7.4, 37 °C",,ΔH,-16.9 kcal/mol
OC[C@H]1CNCCN1C[C@@H]1CCCN1C[C@@H](Cc1ccc2ccccc2c1)N1CCN(CCCC2CCCC2)[C@H](Cc2ccc(O)cc2)C1,Oprm1,radioligand binding,rat brain membranes,"500 nM, pH 7.5, 25 °C, with: 0.87 nM [3H]DAMGO",,remaining binding,97.7 ± 5.81%
Cc1ccc(NCCN(C)C)c2c(=O)c3cc(O)ccc3sc12,"Tumor susceptibility gene 101 protein (Homo sapiens, UniProt Q99816)",thermal stability,,800 µM,,ΔTm,11.1 °C
CCOC(=O)[C@@H]1Cc2c(cc([N+](=O)[O-])cc2[N+](=O)[O-])[C@H](O)[C@]12C(=O)Nc1ccc(Br)cc12,"NUAK family SNF1-like kinase 2 (NUAK2, Homo sapiens, UniProt Q9H093)",KINOMEscan,,100 nM,relative to: DMSO control,remaining binding,54%
CC(C)[C@H]1NC(=O)C[C@H]2/C=C/CCSSC[C@@H](NC1=O)C(=O)N[C@H](Cc1cccc3ccccc13)C(=O)NCC(=O)O2,"Serine/threonine-protein kinase Nek1 (NEK1, Homo sapiens, UniProt Q96PY6)","enzyme activity, inhibitor",,10 µM,,inhibition,16.3%
COc1ccccc1-c1n[nH]c2nc(N[C@H]3CC[C@H](NS(=O)(=O)CC(C)C)CC3)ncc12,"cyclin 9 (Leishmania donovani, UniProt A0A2D1QVA3)","competitor, bead pull-down competition",Leishmania donovani extract,0.0032 µM,relative to: vehicle,remaining binding,46%
CCCCCC(=O)CC(=O)NC1CCSC1=O (stereo not shown),sdiA,,,,,Emax,90%
CS(C)(=O)=Nc1ccc(-c2ccc(-c3nc4cc(O[C@@H]5CO[C@H]6[C@@H]5OC[C@H]6O)[nH]c4cc3F)cc2)cc1,"Serine/threonine-protein kinase TAO3 (TAOK3, Homo sapiens, UniProt Q9H2K8)","enzyme activity, inhibitor",,10 µM,,inhibition,21%
O=C(N[C@@H]1c2ccccc2C[C@H]1N1CCCC1)c1ccc(-c2ccnc3[nH]ccc23)nc1,"Rhodopsin kinase GRK7 (GRK7, Homo sapiens, UniProt Q8WTQ7)","binding, competition with immobilised ligand",,3 µM,,remaining binding,21%
CCNC(=S)NN=Cc1c2ccccc2cc2ccccc12.Cc1ccc(C(C)C)cc1.[Cl-].[Cl-].[Ru+2],"Albumin (ALB, Homo sapiens, UniProt P02768)","binding, van't Hoff, Scatchard",,concentration not given,,enthalpy change (ΔH°),10.3 kcal/mol
CN(C)[C@H]1C[C@@]23CC[C@@]4(O2)C(=CC[C@]2(C)[C@@H](c5ccc6ccncc6c5)CC[C@H]24)C=C3[C@@H](O)[C@@H]1O,"Serine/threonine-protein kinase LATS2 (LATS2, Homo sapiens, UniProt Q9NRM7)","ATP probe labelling, inhibitor, KiNativ profiling",,0.1 µM,,inhibition,-0.8%
C[C@H](NCc1ccc(-c2ccc(C(F)(F)F)cc2)cc1)C(N)=O,"AMPA receptor, rat","binding, radioligand binding",biochemical,"1 µM, with: [3H]AMPA 5.0 nM",,inhibition,2%
CN(C)CCCSC(=S)N1CCN(C(=O)/C=C/c2coc3ccccc3c2=O)CC1,"Nucleoprotein (N, Tomato spotted wilt virus, UniProt P25999, R94A/Y184A)","binding, microscale thermophoresis",,125 µM,dose series,MST response,1.09 a.u.
CCO[C@H]1[C@H](O)[C@@H](N)[C@@H](O[C@H]2[C@H](O[C@@H]3O[C@H](CO)[C@@H](O[C@H]4O[C@@H](CN)[C@@H](O)[C@H](O)[C@H]4N)[C@H]3O)[C@@H](O)[C@H](N)C[C@@H]2N)O[C@@H]1CO,"3',5'-cyclic-AMP phosphodiesterase 4D (PDE4D, Homo sapiens, UniProt Q08499)",cell-free assay,,10 µM,,remaining signal,1%
C#CCCCCOc1ccc2c(c1)CCCN2C(=O)CCl,"Vitamin D3 receptor (VDR, Homo sapiens, UniProt P11473)",mass spectrometry profiling,H460 cell lysate,"100 µM over 10 µM, UniProt P11473",relative to: high over low concentration,reactivity ratio,0.901
CC(C)CC(O)(CC(C)C)c1cn(C(=O)N2CCCC2)nn1,"Prolyl endopeptidase (Mus musculus, UniProt Q9QUR6)",,"mouse, brain",concentration not given,relative to: vehicle over compound,activity-based probe labelling ratio,1.19
O=S(=O)(F)c1cccc2c1OCC2,Uncharacterized hydrolase SAUSA300_2518,"enzyme activity, inhibitor, fluorogenic substrate",,0.5 µM,,remaining activity,116% and 114%
O=C(Nc1ccccc1NC(=O)c1cccc(Cl)c1)c1cccc(Cl)c1,lasR,"reporter gene, agonist",Escherichia coli JLD271,"10 µM, pSC11 and pJN105L plasmids",relative to: OdDHL at same concentration,agonist activity,0%
N[C@H](C(=O)N1CCCC1)C1CCN(c2nccc3c(-c4ncc(Cl)cc4Cl)cccc23)CC1,"Protein-arginine deiminase type-2 (PADI2, Homo sapiens, UniProt Q9Y2J8)",enzyme activity,,"3.84 µM, with: Ca2+ 0.25 mM",,kcat,0.0202 s⁻¹
Cc1cc(-c2ccc3ccccc3c2)nnc1NCCN1CCN(C)CC1,"Vasopressin V1a receptor (AVPR1A, Homo sapiens, UniProt P37288)",antagonist,,10000 nM,relative to: control,activity,0%
Cc1ccc(OS(=O)(=O)F)c(C(=O)Nc2ccncc2)c1,Uncharacterized hydrolase SAUSA300_2518,"enzyme activity, inhibitor, fluorogenic substrate",,10 µM,,remaining activity,42.1% and 40.9% and 40.5%
CCc1nnc(-c2c(OC)cc(-c3cnc4cc(-c5cnn(C)c5)ccn34)cc2OC)o1,"Alpha-2A adrenergic receptor (ADRA2A, Homo sapiens, UniProt P08913)","antagonist radioligand, radioligand binding",,"10 µM, SafetyScreen44 alpha 2 A replicate 2",lower = stronger displacement,remaining binding,104%
O=C(Cc1ccccc1Cl)N[C@H]1CCOC1=O,sdiA,,,,,Emax,104%
Oc1ccc(C[C@@H]2CN([C@H](Cc3ccc4ccccc4c3)CN3CCC[C@H]3CN3CCNC[C@@H]3Cc3ccc4ccccc4c3)CCN2CCCC2CCCC2)cc1,Oprm1,radioligand binding,rat brain membranes,"500 nM, pH 7.5, 25 °C, with: 0.87 nM [3H]DAMGO",,remaining binding,107 ± 5.22%
